# Measured values collected from several papers.
# Numbered parts are unrelated; each lists some results of a single study.
# Chain of UniProt P51813 (whole entry, looked up): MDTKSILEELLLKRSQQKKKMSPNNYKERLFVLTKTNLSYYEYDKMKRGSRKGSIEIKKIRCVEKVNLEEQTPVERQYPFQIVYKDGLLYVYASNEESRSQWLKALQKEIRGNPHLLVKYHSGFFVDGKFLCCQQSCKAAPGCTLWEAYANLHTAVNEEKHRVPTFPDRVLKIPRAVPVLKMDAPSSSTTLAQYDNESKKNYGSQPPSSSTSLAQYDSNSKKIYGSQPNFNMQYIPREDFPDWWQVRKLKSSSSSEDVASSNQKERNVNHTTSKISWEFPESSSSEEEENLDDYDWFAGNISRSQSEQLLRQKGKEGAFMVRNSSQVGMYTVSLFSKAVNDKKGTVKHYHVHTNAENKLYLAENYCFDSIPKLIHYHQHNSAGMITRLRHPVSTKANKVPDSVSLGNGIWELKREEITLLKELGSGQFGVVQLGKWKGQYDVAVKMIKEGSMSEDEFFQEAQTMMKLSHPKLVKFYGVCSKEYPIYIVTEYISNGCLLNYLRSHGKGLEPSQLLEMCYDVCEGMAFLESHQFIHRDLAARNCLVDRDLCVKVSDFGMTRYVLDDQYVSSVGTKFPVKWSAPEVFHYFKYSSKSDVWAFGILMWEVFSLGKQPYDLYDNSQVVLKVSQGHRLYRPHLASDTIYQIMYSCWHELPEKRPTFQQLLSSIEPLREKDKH
# Chain of UniProt Q15375 (whole entry, looked up): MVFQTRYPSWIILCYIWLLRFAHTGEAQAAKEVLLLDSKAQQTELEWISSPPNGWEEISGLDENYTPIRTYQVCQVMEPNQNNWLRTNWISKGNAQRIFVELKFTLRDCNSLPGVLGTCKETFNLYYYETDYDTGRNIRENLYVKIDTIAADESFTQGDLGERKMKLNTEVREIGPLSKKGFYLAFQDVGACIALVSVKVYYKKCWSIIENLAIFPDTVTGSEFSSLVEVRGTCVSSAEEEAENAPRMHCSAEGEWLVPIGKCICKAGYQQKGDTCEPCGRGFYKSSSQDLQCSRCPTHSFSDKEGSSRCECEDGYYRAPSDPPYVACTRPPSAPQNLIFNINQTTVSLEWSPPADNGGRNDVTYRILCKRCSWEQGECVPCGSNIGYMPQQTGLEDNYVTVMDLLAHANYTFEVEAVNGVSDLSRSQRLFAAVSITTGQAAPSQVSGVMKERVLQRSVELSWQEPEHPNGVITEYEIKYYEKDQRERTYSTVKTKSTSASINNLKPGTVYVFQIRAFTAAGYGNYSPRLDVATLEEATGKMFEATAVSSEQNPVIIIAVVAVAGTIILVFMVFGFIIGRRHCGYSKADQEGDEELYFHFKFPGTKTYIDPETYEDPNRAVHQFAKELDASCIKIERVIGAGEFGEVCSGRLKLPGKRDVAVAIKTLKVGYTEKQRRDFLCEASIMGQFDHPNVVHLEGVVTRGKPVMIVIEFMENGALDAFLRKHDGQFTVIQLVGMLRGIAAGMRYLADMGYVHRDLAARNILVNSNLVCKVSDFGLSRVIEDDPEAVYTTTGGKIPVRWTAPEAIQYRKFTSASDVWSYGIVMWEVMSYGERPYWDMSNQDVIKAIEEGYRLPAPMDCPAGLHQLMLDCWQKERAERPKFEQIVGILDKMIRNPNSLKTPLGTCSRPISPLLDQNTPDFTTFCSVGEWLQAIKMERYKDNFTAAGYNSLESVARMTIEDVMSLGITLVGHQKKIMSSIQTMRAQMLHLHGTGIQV
# Chain of UniProt Q99640 (whole entry, looked up): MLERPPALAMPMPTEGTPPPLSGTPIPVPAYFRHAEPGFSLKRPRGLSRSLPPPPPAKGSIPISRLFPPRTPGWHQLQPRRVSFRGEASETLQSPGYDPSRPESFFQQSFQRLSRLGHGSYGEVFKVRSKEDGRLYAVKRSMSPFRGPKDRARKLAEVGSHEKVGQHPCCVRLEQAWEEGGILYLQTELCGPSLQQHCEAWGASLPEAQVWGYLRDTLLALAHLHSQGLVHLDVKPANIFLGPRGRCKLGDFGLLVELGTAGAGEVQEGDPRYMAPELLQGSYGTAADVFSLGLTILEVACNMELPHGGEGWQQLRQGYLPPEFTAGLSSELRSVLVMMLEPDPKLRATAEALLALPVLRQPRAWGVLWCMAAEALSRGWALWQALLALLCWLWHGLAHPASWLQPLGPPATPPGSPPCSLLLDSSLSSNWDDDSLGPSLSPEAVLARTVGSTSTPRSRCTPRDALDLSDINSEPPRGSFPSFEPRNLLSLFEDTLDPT
# Chain of UniProt P25098 (whole entry, looked up): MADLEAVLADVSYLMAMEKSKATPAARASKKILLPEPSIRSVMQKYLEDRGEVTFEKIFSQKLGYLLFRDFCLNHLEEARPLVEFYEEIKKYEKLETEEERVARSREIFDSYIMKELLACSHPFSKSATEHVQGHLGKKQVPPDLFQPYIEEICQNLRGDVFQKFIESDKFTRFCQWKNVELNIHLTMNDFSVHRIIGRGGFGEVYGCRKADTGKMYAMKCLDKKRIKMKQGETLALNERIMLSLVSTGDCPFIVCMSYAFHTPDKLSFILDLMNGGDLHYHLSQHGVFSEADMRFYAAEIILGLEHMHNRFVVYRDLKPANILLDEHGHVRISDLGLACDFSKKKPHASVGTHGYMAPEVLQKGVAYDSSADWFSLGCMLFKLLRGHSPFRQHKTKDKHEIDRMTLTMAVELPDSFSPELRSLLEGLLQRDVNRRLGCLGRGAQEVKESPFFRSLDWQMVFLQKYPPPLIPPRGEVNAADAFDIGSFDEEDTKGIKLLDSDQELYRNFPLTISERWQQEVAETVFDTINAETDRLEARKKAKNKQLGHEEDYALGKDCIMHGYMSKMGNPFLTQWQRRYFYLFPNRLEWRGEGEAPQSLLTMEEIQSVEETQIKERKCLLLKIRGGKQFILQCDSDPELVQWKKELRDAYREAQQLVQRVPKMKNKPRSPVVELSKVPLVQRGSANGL
# Chain of UniProt P29323 (whole entry, looked up): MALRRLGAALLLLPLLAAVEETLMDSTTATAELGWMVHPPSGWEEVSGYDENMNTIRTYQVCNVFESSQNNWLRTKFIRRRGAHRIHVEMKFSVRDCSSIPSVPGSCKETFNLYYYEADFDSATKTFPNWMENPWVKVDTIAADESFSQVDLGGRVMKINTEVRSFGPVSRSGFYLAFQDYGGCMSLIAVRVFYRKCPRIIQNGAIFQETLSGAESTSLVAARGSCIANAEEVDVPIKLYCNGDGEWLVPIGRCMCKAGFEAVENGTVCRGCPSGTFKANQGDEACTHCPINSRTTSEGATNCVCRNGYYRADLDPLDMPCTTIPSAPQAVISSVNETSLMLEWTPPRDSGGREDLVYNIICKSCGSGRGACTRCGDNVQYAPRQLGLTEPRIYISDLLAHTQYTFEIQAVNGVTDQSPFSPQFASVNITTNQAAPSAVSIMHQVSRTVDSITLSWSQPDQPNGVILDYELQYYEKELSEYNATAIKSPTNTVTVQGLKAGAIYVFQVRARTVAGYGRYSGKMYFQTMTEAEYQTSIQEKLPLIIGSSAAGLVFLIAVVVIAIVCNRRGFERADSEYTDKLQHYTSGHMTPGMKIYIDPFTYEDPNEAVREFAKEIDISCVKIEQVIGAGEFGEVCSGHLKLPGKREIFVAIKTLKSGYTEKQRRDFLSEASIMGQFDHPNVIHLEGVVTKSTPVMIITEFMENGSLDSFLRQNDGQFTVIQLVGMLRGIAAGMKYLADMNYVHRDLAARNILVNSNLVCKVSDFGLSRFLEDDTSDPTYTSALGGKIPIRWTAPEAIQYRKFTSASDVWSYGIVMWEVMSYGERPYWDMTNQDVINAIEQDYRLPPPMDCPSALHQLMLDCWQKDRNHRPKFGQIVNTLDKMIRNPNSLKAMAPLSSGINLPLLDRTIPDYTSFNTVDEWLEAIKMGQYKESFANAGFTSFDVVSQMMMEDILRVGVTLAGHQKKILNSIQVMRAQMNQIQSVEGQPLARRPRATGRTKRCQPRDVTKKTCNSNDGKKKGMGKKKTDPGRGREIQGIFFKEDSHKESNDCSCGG
# Chain of UniProt Q13043 (whole entry, looked up): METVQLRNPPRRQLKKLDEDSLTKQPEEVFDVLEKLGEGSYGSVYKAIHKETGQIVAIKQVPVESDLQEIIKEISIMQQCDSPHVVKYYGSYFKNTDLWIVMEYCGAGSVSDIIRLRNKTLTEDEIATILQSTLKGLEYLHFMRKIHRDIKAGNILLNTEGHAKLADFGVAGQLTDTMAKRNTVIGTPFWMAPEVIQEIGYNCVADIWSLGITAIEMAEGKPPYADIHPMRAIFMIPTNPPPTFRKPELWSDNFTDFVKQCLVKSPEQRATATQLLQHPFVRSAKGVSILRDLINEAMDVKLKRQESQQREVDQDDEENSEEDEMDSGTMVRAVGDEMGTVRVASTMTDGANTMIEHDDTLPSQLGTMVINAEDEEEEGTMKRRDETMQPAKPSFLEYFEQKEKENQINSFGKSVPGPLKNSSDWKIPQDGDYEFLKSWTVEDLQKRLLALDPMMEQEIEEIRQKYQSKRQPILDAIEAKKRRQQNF

# Study 1
# Target: Calcium/calmodulin-dependent protein kinase type II subunit alpha (CAMK2A, Homo sapiens, UniProt Q9UQM7)
# Chain of UniProt Q9UQM7 (whole entry, looked up): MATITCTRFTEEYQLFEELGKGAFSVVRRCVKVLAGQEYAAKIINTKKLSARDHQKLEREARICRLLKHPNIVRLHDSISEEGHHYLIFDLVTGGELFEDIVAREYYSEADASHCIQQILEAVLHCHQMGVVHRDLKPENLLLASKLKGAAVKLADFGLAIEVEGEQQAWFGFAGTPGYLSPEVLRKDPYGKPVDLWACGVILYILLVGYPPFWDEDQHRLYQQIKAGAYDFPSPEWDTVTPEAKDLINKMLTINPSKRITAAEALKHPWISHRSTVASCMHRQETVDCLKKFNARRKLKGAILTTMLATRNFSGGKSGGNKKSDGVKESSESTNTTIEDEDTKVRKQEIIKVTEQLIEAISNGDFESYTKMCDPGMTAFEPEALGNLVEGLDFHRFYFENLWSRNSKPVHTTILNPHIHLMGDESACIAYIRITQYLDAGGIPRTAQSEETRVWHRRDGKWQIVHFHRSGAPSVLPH
# Observed: enzyme activity
# Mode: inhibitor
# Tested at: 10 µM
Structure (SMILES),inhibition
CCCCC(CC)COC(=O)c1ccccc1O (stereo not drawn),-3%
NC(=O)[C@@H]1CSSCCC(=O)N[C@@H](CCCCN=C(N)N)C(=O)NCC(=O)N[C@@H](CC(=O)O)C(=O)N[C@@H](Cc2c[nH]c3ccccc23)C(=O)N2CCC[C@H]2C(=O)N1,-2%
CC(=O)O[C@H]1C(=O)c2c(O)cc(O)cc2O[C@@H]1c1ccccc1,-3%
Cc1cc(=O)[nH]c(=S)[nH]1,-5%
COc1ccc(-c2oc3c(CC=C(C)C)c(O)cc(O)c3c(=O)c2O[C@@H]2O[C@@H](C)[C@H](O)[C@@H](O)[C@H]2O[C@@H]2O[C@@H](C)[C@H](O)[C@@H](O)[C@H]2O)cc1,-16%
C=CC(=O)Nc1cc(Nc2nccc(-n3cc(CN(C)C)c(-c4ccccc4)n3)n2)c(OC)cc1N1CCOCC1,-7%
COc1cc(CC(=O)C(=O)O)ccc1O,-16%

# Study 2
# Cell line: HaCaT
# Tested at: 100 µM
# Time: 36 h
SMILES,viability
C[C@@H](NCCCc1cccc(C(F)(F)F)c1)c1cccc2ccccc12,6.19%
CN(C)C/C=C/C(=O)Nc1cc2c(Nc3ccc(F)c(Cl)c3)ncnc2cc1O[C@H]1CCOC1,5.45%
C=C1CC[C@@H]2[C@](C)(CO)[C@H](O)CC[C@@]2(C)[C@@H]1C/C=C1/C(=O)OC[C@H]1O,9.52%
O=C(O)c1ccccc1OP(=O)(O)O,79.2%
O=c1cc(-c2ccccc2)oc2cc(O)c(O)c(O)c12,47.5%
O[C@H](CNC[C@@H](O)[C@H]1CCc2cc(F)ccc2O1)[C@@H]1CCc2cc(F)ccc2O1,4.85%
CCCN(CCC)C(=O)C(CCC(=O)O)NC(=O)c1ccccc1 (stereo not drawn),91.4%
C[C@H]1CN(C[C@H](Cc2ccccc2)C(=O)NCC(=O)O)CC[C@@]1(C)c1cccc(O)c1,88.6%
O=C1CN(/N=C/c2ccc([N+](=O)[O-])o2)C(=O)N1,27.3%
CC(C)[C@H](NC(=O)[C@H](CC(=O)O)NC(=O)[C@H](CCCCN)NC(=O)[C@@H](N)CCCN=C(N)N)C(=O)N[C@@H](Cc1ccc(O)cc1)C(=O)O,85.3%

# Study 3
# Structure (SMILES): CCN1/C(=C/C(C)=O)Sc2ccc(OC)cc21
# Observed: enzyme activity
# Mode: inhibitor
# Tested at: 0.5 µM
# Baseline: control
target,remaining activity
"SRPK3 (Homo sapiens, UniProt Q9UPE1)",95%
"PIM2 (Homo sapiens, UniProt Q9P1W9)",102%
"NUAK1 (Homo sapiens, UniProt O60285)",93.4%
"GRK2 (Homo sapiens, UniProt P25098)",95.5%
"EPHB2 (Homo sapiens, UniProt P29323)",98.3%
"RPS6KA1 (Homo sapiens, UniProt Q15418)",94%
"SGK1 (Homo sapiens, UniProt O00141)",121%
"GRK6 (Homo sapiens, UniProt P43250)",103%
"BMX (Homo sapiens, UniProt P51813)",105%
"FGFR4 (Homo sapiens, UniProt P22455)",92.3%
"PRKCE (Homo sapiens, UniProt Q02156)",95.2%
"GSK3A (Homo sapiens, UniProt P49840)",85.7%
"CSF1R (Homo sapiens, UniProt P07333)",93.8%
"EPHA7 (Homo sapiens, UniProt Q15375)",95.8%
"RPS6KB1 (Homo sapiens, UniProt P23443)",95%
"PAK2 (Homo sapiens, UniProt Q13177)",105%
"CSK (Homo sapiens, UniProt P41240)",104%
"Aurora kinase C (AURKC, Homo sapiens, UniProt Q9UQB9)",94.8%
"MYLK (Homo sapiens, UniProt Q15746)",93.7%
"FLT3 (Homo sapiens, UniProt P36888)",76.1%
"PRKCG (Homo sapiens, UniProt P05129)",75.4%

# Study 4
# SMILES: O=c1nc(-c2ccccn2)sc2ccccc12
# Tested at: 1 µM
target,observed,technique,remaining binding [%]
"EGFR (Homo sapiens, UniProt P00533, L858R/T790M)",cell-free assay,competition with immobilised ligand,100
"MERTK (Homo sapiens, UniProt Q12866)",binding,competition with immobilised ligand,82
"LRRK2 (Homo sapiens, UniProt Q5S007, G2019S)",binding,competition with immobilised ligand,92
"LATS2 (Homo sapiens, UniProt Q9NRM7)",binding,competition with immobilised ligand,79
"CDKL2 (Homo sapiens, UniProt Q92772)",binding,competition with immobilised ligand,76
"CAMK1 (Homo sapiens, UniProt Q14012)",cell-free assay,competition with immobilised ligand,92
"MYLK2 (Homo sapiens, UniProt Q9H1R3)",binding,competition with immobilised ligand,100
"PIK3C3 (Homo sapiens, UniProt Q8NEB9)",cell-free assay,competition with immobilised ligand,82
"EPHA1 (Homo sapiens, UniProt P21709)",cell-free assay,competition with immobilised ligand,100
"Myosin-IIIa (MYO3A, Homo sapiens, UniProt Q8NEV4)",binding,competition with immobilised ligand,92
"TNK2 (Homo sapiens, UniProt Q07912)",binding,competition with immobilised ligand,100
"KDR (Homo sapiens, UniProt P35968)",cell-free assay,competition with immobilised ligand,100
"KIT (Homo sapiens, UniProt P10721)",binding,competition with immobilised ligand,79
"PIP4K2B (Homo sapiens, UniProt P78356)",cell-free assay,competition with immobilised ligand,100
"STK4 (Homo sapiens, UniProt Q13043)",binding,competition with immobilised ligand,75
"ERBB2 (Homo sapiens, UniProt P04626)",binding,competition with immobilised ligand,65
"PRKG1 (Homo sapiens, UniProt Q13976)",binding,competition with immobilised ligand,100
"BMX (Homo sapiens, UniProt P51813)",binding,competition with immobilised ligand,98
"FLT3 (Homo sapiens, UniProt P36888, D835Y)",binding,competition with immobilised ligand,100
"MAP3K1 (Homo sapiens, UniProt Q13233)",binding,competition with immobilised ligand,65
"SIK1 (Homo sapiens, UniProt P57059)",,competition binding,95
"Ribosomal protein S6 kinase alpha-4, C-terminal kinase domain (RPS6KA4, Homo sapiens, UniProt O75676)",binding,competition with immobilised ligand,80
"LIM domain kinase 1 (LIMK1, Homo sapiens, UniProt P53667)",binding,competition with immobilised ligand,84
"NEK10 (Homo sapiens, UniProt Q6ZWH5)",binding,competition with immobilised ligand,100
"PKMYT1 (Homo sapiens, UniProt Q99640)",binding,competition with immobilised ligand,100

# A few entries again (study 4):
target,observed,technique,remaining binding [%]
"MYLK2 (Homo sapiens, UniProt Q9H1R3)",binding,competition with immobilised ligand,100
"PKMYT1 (Homo sapiens, UniProt Q99640)",binding,competition with immobilised ligand,100
"STK4 (Homo sapiens, UniProt Q13043)",binding,competition with immobilised ligand,75
"CDKL2 (Homo sapiens, UniProt Q92772)",binding,competition with immobilised ligand,76
"LATS2 (Homo sapiens, UniProt Q9NRM7)",binding,competition with immobilised ligand,79
"LIM domain kinase 1 (LIMK1, Homo sapiens, UniProt P53667)",binding,competition with immobilised ligand,84
"KIT (Homo sapiens, UniProt P10721)",binding,competition with immobilised ligand,79
"MERTK (Homo sapiens, UniProt Q12866)",binding,competition with immobilised ligand,82
"FLT3 (Homo sapiens, UniProt P36888, D835Y)",binding,competition with immobilised ligand,100
"EGFR (Homo sapiens, UniProt P00533, L858R/T790M)",cell-free assay,competition with immobilised ligand,100
